Assay results gathered from unrelated publications.
Each line is one published result; not all experiments were run side by side.
FLT3 R834Q: Receptor-type tyrosine-protein kinase FLT3 (FLT3, Homo sapiens, UniProt P36888, R834Q)
FLT3 K663Q: Receptor-type tyrosine-protein kinase FLT3 (FLT3, Homo sapiens, UniProt P36888, K663Q)
FLT3: Receptor-type tyrosine-protein kinase FLT3 (FLT3, Homo sapiens, UniProt P36888)
FLT3 D835V: Receptor-type tyrosine-protein kinase FLT3 (FLT3, Homo sapiens, UniProt P36888, D835V)

SMILES | target | read-out | technique | concentration | relative to | remaining binding
Nc1ncc2c(n1)-c1c([nH]c3ccc(C4=CCOCC4)cc13)CCC2 | FLT3 R834Q | binding | competition with immobilised ligand | 1 µM | – | 100%
CCN1CCN(Cc2ccc(NC(=O)c3ccc(C)c(NC(=O)c4cncc(-c5cccs5)c4)c3)cc2C(F)(F)F)CC1 | Receptor-type tyrosine-protein kinase FLT3 (FLT3, Homo sapiens, UniProt P36888, D835Y) | binding | competition with immobilised ligand | 1 µM | – | 15%
CNC1C[S+]2CC[S+]3CC[S+](C1)[Ru-4]321([N]=C=S)[n]2c3ccc(OC)cc3c3c4c(c5cc(F)c[n+]1c5c32)C(=O)NC4=O (stereo not shown) | FLT3 K663Q | – | KinomeScan | 0.1 µM | untreated | 34%
CC(C)=CC1OC(C)(C)C2C=C3C(=O)C(Cl)=CC(O)C3C3C(O)C4OC4C(=O)C132 (stereo not shown) | FLT3 | cell-free assay | competition with immobilised ligand | 10 µM | – | 92%
COc1c(Cl)cccc1Nc1c(-c2ccncc2C#C[C@@]2(C)CCCN2C(=O)/C=C/CN(C)C)[nH]c2c1C(=O)NCC2 | FLT3 K663Q | binding | competition with immobilised ligand | 3 µM | – | 93%
CCN1CCN(Cc2ccc(C(=O)Nc3ccc(C)c(NCc4cnc5[nH]ccc5c4OC)c3)cc2C(F)(F)F)CC1 | FLT3 K663Q | binding | competition with immobilised ligand | 1 µM | – | 0.55%
Cc1ccc(-c2c(/C=C(\C#N)C(=O)NC(C)C)n(CCCO)c3ncnc(N)c23)cc1 | FLT3 K663Q | cell-free assay | competition with immobilised ligand | 1 µM | – | 70%
COc1ccc(NC(=O)Nc2ccc3c(c2)C(=O)N(C(C)CO)CC(C)C(CN(C)Cc2ccc4c(c2)OCO4)O3)cc1 (stereo not shown) | FLT3 | binding | competition with immobilised ligand | 10 µM | – | 65%
CNC(=O)C1CCN(c2cc(C)c(F)cc2NC(=O)c2ccc(-c3cc(O)ccc3C)c(C)c2)CC1 | FLT3 D835V | binding | competition with immobilised ligand | 1 µM | – | 100%
Cc1cnc2nc1Nc1cccc(c1)COC/C=C/COCc1cc(ccc1OCCN1CCOCC1)N2 | FLT3 D835V | binding | – | 0.1 µM | – | 0%
C=CC(=O)N1CCCC(n2c(=O)c3ncccc3n(Cc3ccc(Oc4ccccc4)cc3)c2=O)C1 (stereo not shown) | FLT3 R834Q | cell-free assay | competition with immobilised ligand | 1 µM | – | 77%
C=CC(=O)N1CCc2ccc(-n3c(=O)ccc4cnc5ccc(-c6cnn(C)c6)cc5c43)cc21 | Receptor-type tyrosine-protein kinase FLT3 (FLT3, Homo sapiens, UniProt P36888, N841I) | – | KINOMEscan | 1 µM | DMSO control | 99%
C=C1CCCCCCCCCC(CO)C1=O (stereo not shown) | FLT3 | cell-free assay | competition with immobilised ligand | 10 µM | – | 99%
